Measured values gathered from unrelated publications.
“And” joins repeats or separate records; there may be more than shown. ± gives the spread as reported.
Cell line: HeLa

`C[C@@H]1CC[C@@H]([C@](O)(COCc2ccccc2)Cn2cnc3ccccc32)[C@H](OCc2ccccc2)C1` gave an inhibition of 97.8% (cell growth or viability, MTT; 10 µM, 72 h).
`CCC(=CCc1c(O)cc2c(c1O)C(=O)CC(c1c(O)cccc1OC)O2)CC` (centres unmarked) gave an inhibition of 2.73% (cell growth or viability, MTT; 1.563 µM, 48 h).
`C[C@H]1O[C@@H]2C3=C(O[C@]2(C)[C@@]1(O)C=O)C(=O)c1c(O)cccc1C3=O` gave an EC50 of 22 µM (cell growth or viability, MTT; 48 h).
The inhibition of `CCC(=CCc1c(O)cc2c(c1O)C(=O)CC(c1cc(OC)ccc1O)O2)CC` (centres unmarked) is reported as 2.11% (cell growth or viability, MTT; 3.125 µM, 48 h).
`N#C[Se]CCCCCCOc1ccc2c(-c3ccccc3)cc(=O)oc2c1` has a GI50 of 11 µM (cell growth or viability, SRB).
`CCCCCCCCCCCCCC(=S)NCCCC[C@H](NS(C)(=O)=O)C(=O)N[C@H](C)C(=O)N[C@@H](CCCNC(=N)N)C(N)=O` has an EC50 of 18.8 to 32.1 µM (cell growth or viability, MTT; 72 h).
The viability reduction of `CCCC[N+]1=c2cc3c4cc2[O][Mn-2]1(=[C]=O)(=[C]=O)(=[C]=O)[n+]1ccc(cc1)C(=O)Oc1ccccc1OC(=O)c1cc[n+](cc1)[Mn-2](=[C]=O)(=[C]=O)(=[C]=O)([O]3)[N+]=4CCCC` is reported as 53% (MTT; 50 µM, 48 h, photolysed compound).
The inhibition of `CCC(=CCc1c(O)cc2c(c1O)C(=O)CC(c1cccc(OC)c1O)O2)CC` (centres unmarked) is reported as 19.6% (cell growth or viability, MTT; 12.5 µM, 48 h).
For `COc1ccc(CNC[C@@](O)(COCc2ccc(F)cc2)[C@@H]2CC[C@@H](C)C[C@H]2OCc2ccc(F)cc2)cc1`, the inhibition was 95.8% (cell growth or viability, MTT; 30 µM, 72 h).
`CCCC[N+]1=c2cc3c4cc2[O][Mn-2]1(=[C]=O)(=[C]=O)(=[C]=O)[n+]1ccc(cc1)C(=O)OCCOCCOC(=O)c1cc[n+](cc1)[Mn-2](=[C]=O)(=[C]=O)(=[C]=O)([O]3)[N+]=4CCCC` has a viability reduction of 78% (MTT; 50 µM, 48 h, photolysed compound).
For `COc1ccc(CNC[C@@](O)(COCc2ccc(OC)cc2)[C@@H]2CC[C@@H](C)C[C@H]2OCc2ccc(OC)cc2)cc1`, the inhibition was 99.2% (cell growth or viability, MTT; 10 µM, 72 h).
For `CCCCCCc1cccc(C(O)CC(CO)NC(=O)CCCCCCCCCCNC(C)=O)c1` (centres unmarked), the ceramide level was 75 pmol/sample and 95 pmol/sample and 103 pmol/sample (CERT activity, HPLC-MS/MS lipidomics, measured: ceramide 20; 1 µM, 24 h, not cell-number normalised).
The GFP/RFP ratio of `O=C1NCC(COc2cccc3c(NCc4ccccc4)nc(Cl)nc23)O1` (centres unmarked) is reported as 3.54 (splicing reporter, measured: GLA; 10 µM, 18 h).
`CCC(=CCc1c(O)cc2c(c1O)C(=O)CC(c1ccc(OC)c(O)c1)O2)CC` (centres unmarked) has an inhibition of 96.6% (cell growth or viability, MTT; 50 µM, 48 h).
`Cc1c(Cl)c(=O)oc2cc(OCCCCCCSC#N)ccc12` gave a GI50 of 17 µM (cell growth or viability, SRB).
The EC50 of `CC(=S)NCCCC[C@H](NC(=O)OCc1ccccc1)C(=O)N[C@@H](Cc1c[nH]c2ccccc12)C(=O)NC(C)C` is reported as 27.8 to 40.7 µM (cell growth or viability, MTT; 72 h).
`CCCCCCCCCCCC(=O)N[C@@H](CO)C[C@@H](O)c1cccc(CCCCCC)c1` has a sphingomyelin level of 3980 pmol/sample and 2890 pmol/sample and 3170 pmol/sample (CERT activity, HPLC-MS/MS lipidomics, measured: sphingomyelin 20; 1 µM, 24 h, not cell-number normalised).
For `COc1cccc(CNC[C@](O)(COCc2ccccc2)[C@@H]2CC[C@@H](C)C[C@H]2OCc2ccccc2)c1`, the inhibition was 99.4% (cell growth or viability, MTT; 10 µM, 72 h).
With `O=C(CCCCCOc1ccc2ccccc2c1)N[C@@H](CO)C[C@@H](O)c1ccc(-c2ccccc2)cc1` the ceramide level was 19700 pmol/sample and 21500 pmol/sample and 18500 pmol/sample (CERT activity, HPLC-MS/MS lipidomics, measured: ceramide 24:1; 1 µM, 24 h, not cell-number normalised).
The inhibition of `CCC(=CCc1c(O)cc2c(c1O)C(=O)CC(c1ccccc1O)O2)CC` (centres unmarked) is reported as 91% (cell growth or viability, MTT; 120 µM, 48 h).
The inhibition of `C[C@@H]1CC[C@@H]([C@](O)(CNCc2ccc(F)cc2)COCc2ccccc2)[C@H](OCc2ccccc2)C1` is reported as 53.7% (cell growth or viability, MTT; 10 µM, 72 h).
With `CN(C)c1ccc(-n2cc(COC(=O)[C@@]3(C)C=C(C(=O)OC(C)(C)C)C(=O)CC3)nn2)cc1` the pERK/ERK ratio was 0.0853 (quantitative western blot; concentration not given, 0 (unit not given), together with: EGF).
`CCCC[N+]1=c2cc3c4cc2[O][Mn-2]1(=[C]=O)(=[C]=O)(=[C]=O)[n+]1ccc(cc1)C(=O)Nc1ccccc1NC(=O)c1cc[n+](cc1)[Mn-2](=[C]=O)(=[C]=O)(=[C]=O)([O]3)[N+]=4CCCC` has a viability reduction of 76% (MTT; 50 µM, 48 h, photolysed compound).
For `Cc1ccc2c(Cl)cc(Cl)c([O-])c2n1.Cc1ccc2c(Cl)cc(Cl)c([O-])c2n1.[Co+2].c1cnc2c(c1)ccc1cccnc12`, the IC50 was 1.99 µM (cell growth or viability, MTT; 48 h).
The ceramide level of `CCCCCCc1cccc([C@H](O)C[C@H](CO)NC(=O)CCCCCOc2ccc3ccccc3c2)c1` is reported as 14200 pmol/sample and 14100 pmol/sample and 9370 pmol/sample (CERT activity, HPLC-MS/MS lipidomics, measured: ceramide 24; 1 µM, 24 h, not cell-number normalised).
With `O=C1NCC(COc2nccc3c(NCc4ccccc4)cc(Cl)nc23)O1` (centres unmarked) the GFP/RFP ratio was 4.89 (splicing reporter, measured: GLA; 10 µM, 18 h).
`C[C@@H]1CC[C@@H]([C@](O)(CNCc2ccccc2F)COCc2ccccc2)[C@H](OCc2ccccc2)C1` gave an inhibition of 98.9% (cell growth or viability, MTT; 30 µM, 72 h).
The inhibition of `COc1ccc(C2CC(=O)c3c(cc(O)c(CC=C(C)C)c3O)O2)cc1` (centres unmarked) is reported as 2.4% (cell growth or viability, MTT; 1.563 µM, 48 h).
For `CSc1cc(C)[nH]c(=O)c1CN1CCc2c(Cl)c3c(c(C)c2C1=O)OC(C)(C1CCC(N(C)C)CC1)O3` (centres unmarked), the EC50 was 0.00099 µM (histone methylation reduction, AlphaLISA, measured: H3K27me3; 72 h).
`CCC(=CCc1c(O)cc2c(c1O)C(=O)CC(c1cccc(O)c1)O2)CC` (centres unmarked) has an inhibition of 4.12% (cell growth or viability, MTT; 3.125 µM, 48 h).
With `COc1ccccc1CNC[C@](O)(COCc1ccccc1)[C@@H]1CC[C@@H](C)C[C@H]1OCc1ccccc1` the inhibition was 97.6% (cell growth or viability, MTT; 30 µM, 72 h).
With `O=C(Nc1cc(OCCN2CCCC2)c2ccccc2n1)c1cccc(C(=O)Nc2cc(OCCN3CCCC3)c3ccccc3n2)n1` the selectivity ratio was 1 (cell viability, CellTiter-Glo; 72 h; reference: IC50 HeLa over WI-38).
`CCC(=CCc1c(O)cc2c(c1O)C(=O)CC(c1ccc(O)cc1)O2)CC` (centres unmarked) has a necrotic cells of 4.61 ± 0.06% (annexin V/PI; 24 µM, 48 h).
`Cc1cc(C)c(CNC(=O)c2c(C)n(C(C)C3CCC(NC4(C)COC4)CC3)c3ccccc23)c(=O)[nH]1` (centres unmarked) gave an EC50 of 0.0084 µM (histone methylation reduction, AlphaLISA, measured: H3K27me3; 72 h).
`Cc1cc(C)nc(SCC(=O)Nc2ncc(Cc3cccc4ccccc34)s2)n1` has an EC50 of 13.8 to 20.8 µM (cell growth or viability, MTT; 72 h).
With `C[C@@H]1CC[C@@H]([C@@](O)(CNCc2ccc(F)cc2)COCc2ccc(F)cc2)[C@H](OCc2ccc(F)cc2)C1` the inhibition was 93.4% (cell growth or viability, MTT; 10 µM, 72 h).
The sphingomyelin level of `CC(C)(C)c1ccc([C@H](O)C[C@H](CO)NC(=O)CCCCCOc2ccc3ccccc3c2)cc1` is reported as 3110 pmol/sample and 2000 pmol/sample and 3660 pmol/sample (CERT activity, HPLC-MS/MS lipidomics, measured: sphingomyelin 20; 1 µM, 24 h, not cell-number normalised).
`CCN(C(=O)c1cc(F)ccc1Oc1nncnc1N1CCC2(C1)CN([C@H](CCCN(C)CCOC)C(C)C)C2)C(C)C` has a GI50 of greater than 10 µM (cell growth or viability; 7 days).

Excerpt of the above:
With `CN(C)c1ccc(-n2cc(COC(=O)[C@@]3(C)C=C(C(=O)OC(C)(C)C)C(=O)CC3)nn2)cc1` the pERK/ERK ratio was 0.0853 (quantitative western blot; concentration not given, 0 (unit not given), together with: EGF).
The inhibition of `CCC(=CCc1c(O)cc2c(c1O)C(=O)CC(c1ccccc1O)O2)CC` (centres unmarked) is reported as 91% (cell growth or viability, MTT; 120 µM, 48 h).
The GFP/RFP ratio of `O=C1NCC(COc2cccc3c(NCc4ccccc4)nc(Cl)nc23)O1` (centres unmarked) is reported as 3.54 (splicing reporter, measured: GLA; 10 µM, 18 h).
The inhibition of `C[C@@H]1CC[C@@H]([C@](O)(CNCc2ccc(F)cc2)COCc2ccccc2)[C@H](OCc2ccccc2)C1` is reported as 53.7% (cell growth or viability, MTT; 10 µM, 72 h).
`CCCCCCCCCCCC(=O)N[C@@H](CO)C[C@@H](O)c1cccc(CCCCCC)c1` has a sphingomyelin level of 3980 pmol/sample and 2890 pmol/sample and 3170 pmol/sample (CERT activity, HPLC-MS/MS lipidomics, measured: sphingomyelin 20; 1 µM, 24 h, not cell-number normalised).
The sphingomyelin level of `CC(C)(C)c1ccc([C@H](O)C[C@H](CO)NC(=O)CCCCCOc2ccc3ccccc3c2)cc1` is reported as 3110 pmol/sample and 2000 pmol/sample and 3660 pmol/sample (CERT activity, HPLC-MS/MS lipidomics, measured: sphingomyelin 20; 1 µM, 24 h, not cell-number normalised).
